Experimental data from different studies.
Parts stem from different laboratories: compare values within a part only.

Set 1
Target: Sal-like protein 4, full length isoform B (SALL4, Homo sapiens, UniProt Q9UJQ4-2, residues 1-616)
Method: universal PBM
Form: double-stranded DNA, one strand shown
Medium: in vitro
Tested at: not given
Notes: 8-mer, flanks averaged, mean of replicates
Direction: higher = stronger binding
Residues (chain): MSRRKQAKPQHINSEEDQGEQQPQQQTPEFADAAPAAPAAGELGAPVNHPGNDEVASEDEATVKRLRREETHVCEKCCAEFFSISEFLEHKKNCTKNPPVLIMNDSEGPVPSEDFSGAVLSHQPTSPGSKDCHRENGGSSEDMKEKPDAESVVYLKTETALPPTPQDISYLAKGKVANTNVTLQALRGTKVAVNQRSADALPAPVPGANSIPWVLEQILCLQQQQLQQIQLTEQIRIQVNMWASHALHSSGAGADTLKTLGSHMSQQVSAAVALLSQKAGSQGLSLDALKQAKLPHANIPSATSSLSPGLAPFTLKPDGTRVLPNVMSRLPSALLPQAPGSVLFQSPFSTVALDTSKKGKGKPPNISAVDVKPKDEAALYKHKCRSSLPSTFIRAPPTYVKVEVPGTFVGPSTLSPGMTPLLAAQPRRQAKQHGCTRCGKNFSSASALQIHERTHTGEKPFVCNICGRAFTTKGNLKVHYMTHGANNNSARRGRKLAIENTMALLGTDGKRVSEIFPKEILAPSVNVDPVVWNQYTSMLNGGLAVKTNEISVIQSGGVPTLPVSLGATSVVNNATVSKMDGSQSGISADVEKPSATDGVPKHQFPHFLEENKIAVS
With `ATTGCTAG` the E-score was 0.146.
The E-score of `AAAATCGC` is reported as 0.113.
With `ATGGTAGA` the E-score was 0.0261.

Set 2
Target: Prothrombin, mature alpha-thrombin (F2, Homo sapiens, UniProt P00734)
Method: aptamer microarray, sandwich
Form: DNA with 2'F-ANA
Medium: in vitro
Tested at: 200 nM
Notes: whole 15-mer aptamer, many near background
Added: Cy3 exosite-II aptamer, 400 nM
Direction: higher = stronger binding
`GGTTGGTGTGGTTGG (2'F-ANA at 5 7 8)`: “mean fluorescence intensity” 90.6 a.u.
For `GGTTGGTGTGGTTGG (2'F-ANA at 5 6 8 10 11 12 14 15)`, “mean fluorescence intensity” read 47.3 a.u.
Under “mean fluorescence intensity”, `GGTTGGTGTGGTTGG (2'F-ANA at 2 7 10 13)` is recorded as 128 a.u.

Further values, each from its own experiment
`PhoQ, residues 284 288 289 292 302 303 AGCYAI` has a fold induction of 27.9 (PhoP, residues 12 14 15 18 19 LHHVQ (Escherichia coli, UniProt P23836); Sort-seq, refers to: YFP reporter; E. coli; PhoQ-PhoP variant library, added: 10 µM Mg2+; reference: high Mg2+ state, higher = stronger signaling).
Under “RBNS enrichment (R)”, `GGGAGUUCUACAGUCCGACGAUCGAAAUGCUUUUAACUCAAACAGCAACAUCUUAGCUAUUUGUUAGUUCUCUUUUGUUGUCUUAUCAAAGUUUAAUGGAGACACUUUCAUAAUUGUUGUUGUGUGUACAUUUUGGAAUUCUCGGGUGCCAA` is recorded as 0.463 (RNA binding protein fox-1 homolog 2, RRM domain, GST-SBP tag (RBFOX2, Homo sapiens, UniProt O43251-10, residues 100-194); RNA Bind-n-Seq; RNA, in vitro; 365 nM, natural RNA segment, single round, ends assumed; reference: no-protein control, higher = stronger binding).

A few entries again (further values, each from its own experiment):
Under “RBNS enrichment (R)”, `GGGAGUUCUACAGUCCGACGAUCGAAAUGCUUUUAACUCAAACAGCAACAUCUUAGCUAUUUGUUAGUUCUCUUUUGUUGUCUUAUCAAAGUUUAAUGGAGACACUUUCAUAAUUGUUGUUGUGUGUACAUUUUGGAAUUCUCGGGUGCCAA` is recorded as 0.463 (RNA binding protein fox-1 homolog 2, RRM domain, GST-SBP tag (RBFOX2, Homo sapiens, UniProt O43251-10, residues 100-194); RNA Bind-n-Seq; RNA, in vitro; 365 nM, natural RNA segment, single round, ends assumed; reference: no-protein control, higher = stronger binding).
